Experimental data gathered from unrelated publications.
Parts stem from different laboratories: compare values within a part only. Values joined by “and” are separate records of one study, mostly repeats; a detail may differ.
Chain of UniProt Q13470 (whole entry, looked up): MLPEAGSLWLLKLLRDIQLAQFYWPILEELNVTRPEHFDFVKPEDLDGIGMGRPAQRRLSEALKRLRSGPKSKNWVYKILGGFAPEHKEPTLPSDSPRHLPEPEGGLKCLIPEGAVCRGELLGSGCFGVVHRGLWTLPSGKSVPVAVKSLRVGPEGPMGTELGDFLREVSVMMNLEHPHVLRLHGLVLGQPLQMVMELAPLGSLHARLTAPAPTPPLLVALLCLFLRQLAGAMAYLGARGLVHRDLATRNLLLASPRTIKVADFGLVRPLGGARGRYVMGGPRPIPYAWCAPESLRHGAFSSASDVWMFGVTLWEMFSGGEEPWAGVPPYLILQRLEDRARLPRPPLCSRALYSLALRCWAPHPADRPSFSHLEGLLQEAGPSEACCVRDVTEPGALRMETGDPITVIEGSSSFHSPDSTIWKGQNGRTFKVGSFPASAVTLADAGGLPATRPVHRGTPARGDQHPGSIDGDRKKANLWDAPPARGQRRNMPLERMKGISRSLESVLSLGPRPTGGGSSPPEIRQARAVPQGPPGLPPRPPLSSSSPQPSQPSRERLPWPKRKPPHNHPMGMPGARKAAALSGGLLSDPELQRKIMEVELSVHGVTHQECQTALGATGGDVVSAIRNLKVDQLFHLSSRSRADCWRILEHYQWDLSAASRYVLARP
Chain of UniProt P10721 (whole entry, unmodified, looked up): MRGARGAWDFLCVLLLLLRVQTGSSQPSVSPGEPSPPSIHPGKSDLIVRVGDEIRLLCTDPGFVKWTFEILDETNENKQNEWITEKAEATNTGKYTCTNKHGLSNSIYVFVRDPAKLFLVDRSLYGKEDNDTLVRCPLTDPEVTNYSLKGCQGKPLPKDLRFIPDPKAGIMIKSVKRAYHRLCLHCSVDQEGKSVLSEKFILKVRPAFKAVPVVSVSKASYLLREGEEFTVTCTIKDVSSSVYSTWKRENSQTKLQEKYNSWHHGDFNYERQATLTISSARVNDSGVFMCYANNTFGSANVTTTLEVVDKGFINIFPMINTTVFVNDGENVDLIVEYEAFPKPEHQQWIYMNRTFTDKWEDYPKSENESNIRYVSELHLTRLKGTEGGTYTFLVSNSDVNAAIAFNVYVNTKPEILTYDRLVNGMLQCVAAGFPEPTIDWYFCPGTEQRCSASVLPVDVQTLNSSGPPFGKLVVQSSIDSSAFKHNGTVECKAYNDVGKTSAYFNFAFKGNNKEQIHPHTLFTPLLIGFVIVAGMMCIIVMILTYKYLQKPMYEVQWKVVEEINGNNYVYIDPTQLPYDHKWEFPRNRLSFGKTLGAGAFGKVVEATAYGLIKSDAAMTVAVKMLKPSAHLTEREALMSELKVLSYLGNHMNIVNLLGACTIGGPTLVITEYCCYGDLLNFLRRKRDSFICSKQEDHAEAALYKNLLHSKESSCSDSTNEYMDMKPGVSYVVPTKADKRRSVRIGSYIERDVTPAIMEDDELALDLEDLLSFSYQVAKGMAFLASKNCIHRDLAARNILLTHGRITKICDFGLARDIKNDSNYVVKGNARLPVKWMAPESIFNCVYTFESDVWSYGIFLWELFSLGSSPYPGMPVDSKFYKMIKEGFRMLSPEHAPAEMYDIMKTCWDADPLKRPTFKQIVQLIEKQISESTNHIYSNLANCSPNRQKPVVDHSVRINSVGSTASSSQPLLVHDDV
Chain of UniProt Q8N752 (whole entry, looked up): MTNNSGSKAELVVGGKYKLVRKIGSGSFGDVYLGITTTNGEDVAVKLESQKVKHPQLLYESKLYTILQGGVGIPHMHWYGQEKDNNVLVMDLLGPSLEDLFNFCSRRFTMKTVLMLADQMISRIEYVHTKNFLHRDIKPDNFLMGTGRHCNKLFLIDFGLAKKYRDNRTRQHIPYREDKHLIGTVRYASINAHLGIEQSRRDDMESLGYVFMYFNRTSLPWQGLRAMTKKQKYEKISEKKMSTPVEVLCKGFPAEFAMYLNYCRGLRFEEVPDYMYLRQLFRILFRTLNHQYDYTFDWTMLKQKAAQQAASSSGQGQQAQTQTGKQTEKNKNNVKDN
Chain of UniProt O15530 (whole entry, looked up): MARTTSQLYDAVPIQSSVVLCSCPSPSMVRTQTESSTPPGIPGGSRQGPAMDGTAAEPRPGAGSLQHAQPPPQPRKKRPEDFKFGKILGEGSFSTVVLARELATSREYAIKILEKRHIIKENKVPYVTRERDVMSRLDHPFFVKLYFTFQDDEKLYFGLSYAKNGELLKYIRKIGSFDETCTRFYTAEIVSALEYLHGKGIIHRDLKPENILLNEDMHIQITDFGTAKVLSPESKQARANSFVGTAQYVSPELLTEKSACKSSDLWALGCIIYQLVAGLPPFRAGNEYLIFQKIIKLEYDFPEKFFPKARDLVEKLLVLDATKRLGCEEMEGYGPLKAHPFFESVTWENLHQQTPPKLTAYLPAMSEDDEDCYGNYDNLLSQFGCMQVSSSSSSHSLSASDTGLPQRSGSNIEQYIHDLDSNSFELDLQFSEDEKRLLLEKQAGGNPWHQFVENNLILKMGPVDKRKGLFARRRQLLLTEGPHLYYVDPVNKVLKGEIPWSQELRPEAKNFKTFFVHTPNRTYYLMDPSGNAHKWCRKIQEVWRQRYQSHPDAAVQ
Chain of UniProt Q5VT25 (whole entry, looked up): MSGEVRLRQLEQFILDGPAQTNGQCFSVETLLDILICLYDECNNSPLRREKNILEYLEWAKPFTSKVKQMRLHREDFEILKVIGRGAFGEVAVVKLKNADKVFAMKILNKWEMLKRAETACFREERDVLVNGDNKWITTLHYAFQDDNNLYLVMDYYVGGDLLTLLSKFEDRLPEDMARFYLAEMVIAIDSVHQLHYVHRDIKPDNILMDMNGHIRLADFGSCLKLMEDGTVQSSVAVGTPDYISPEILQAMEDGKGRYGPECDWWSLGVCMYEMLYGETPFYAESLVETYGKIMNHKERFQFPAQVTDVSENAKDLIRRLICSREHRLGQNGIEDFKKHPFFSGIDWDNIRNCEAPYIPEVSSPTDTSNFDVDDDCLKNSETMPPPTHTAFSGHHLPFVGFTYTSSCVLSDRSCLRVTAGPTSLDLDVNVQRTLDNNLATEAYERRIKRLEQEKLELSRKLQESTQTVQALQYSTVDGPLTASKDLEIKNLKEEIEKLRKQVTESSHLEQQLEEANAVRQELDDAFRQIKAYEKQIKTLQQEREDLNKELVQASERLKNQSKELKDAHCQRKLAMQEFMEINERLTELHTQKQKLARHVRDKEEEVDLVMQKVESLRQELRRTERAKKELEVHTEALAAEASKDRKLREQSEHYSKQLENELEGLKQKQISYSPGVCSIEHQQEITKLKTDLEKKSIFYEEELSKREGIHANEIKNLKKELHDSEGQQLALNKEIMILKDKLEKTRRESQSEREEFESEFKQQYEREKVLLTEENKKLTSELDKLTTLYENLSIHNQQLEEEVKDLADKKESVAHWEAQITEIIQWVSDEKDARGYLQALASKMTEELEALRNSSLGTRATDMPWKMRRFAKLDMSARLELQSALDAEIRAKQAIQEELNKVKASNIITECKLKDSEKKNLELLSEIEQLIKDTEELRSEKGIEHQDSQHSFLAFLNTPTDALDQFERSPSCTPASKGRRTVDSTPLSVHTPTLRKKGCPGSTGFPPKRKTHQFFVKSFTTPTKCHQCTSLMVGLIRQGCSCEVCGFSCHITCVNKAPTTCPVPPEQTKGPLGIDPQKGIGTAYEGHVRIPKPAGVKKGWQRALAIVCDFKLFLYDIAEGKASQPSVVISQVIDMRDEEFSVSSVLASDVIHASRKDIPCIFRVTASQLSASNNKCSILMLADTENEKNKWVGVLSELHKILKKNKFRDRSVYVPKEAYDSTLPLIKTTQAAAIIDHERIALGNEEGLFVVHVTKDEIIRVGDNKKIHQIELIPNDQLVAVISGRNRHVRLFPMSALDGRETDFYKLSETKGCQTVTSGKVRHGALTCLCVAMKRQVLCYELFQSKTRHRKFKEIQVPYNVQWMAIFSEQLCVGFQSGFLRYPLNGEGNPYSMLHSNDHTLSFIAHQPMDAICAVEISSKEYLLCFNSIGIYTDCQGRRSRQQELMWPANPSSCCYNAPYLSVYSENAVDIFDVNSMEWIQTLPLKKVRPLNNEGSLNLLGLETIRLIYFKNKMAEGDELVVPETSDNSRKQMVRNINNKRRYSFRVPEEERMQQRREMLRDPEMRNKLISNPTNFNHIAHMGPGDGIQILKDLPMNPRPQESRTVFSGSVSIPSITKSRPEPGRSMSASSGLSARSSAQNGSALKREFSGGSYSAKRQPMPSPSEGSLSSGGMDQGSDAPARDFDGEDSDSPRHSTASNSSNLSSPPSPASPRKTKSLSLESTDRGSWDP

Block 1 — medium: plasma
SMILES: COc1ccc(-c2c(Nc3ccccn3)[nH]c3c(C4=CCCCC4)c(-c4ccccc4)nn3c2=O)cc1
assay | test system | conditions | plasma concentration
LC-MS/MS, item: methionine | human cancer patients | 200 mg BID, 4 h, geometric mean, cycle 1 day 200 | 67700 ng/mL
LC-MS/MS, item: methionine | human cancer patients | QD, dose not given, 6 h, median, cycle 1 day 50 | 88100 ng/mL
LC-MS/MS, item: methionine | human cancer patients | QD, dose not given, 6 h, mean, cycle 1 day 50 | 70800 ng/mL
LC-MS/MS, item: S-adenosylmethionine | human cancer patients | 200 mg BID, 4 h, median, cycle 1 day 200 | 12.8 ng/mL
LC-MS/MS, item: S-adenosylmethionine | human cancer patients | 50 mg QD, 2 h, mean, cycle 1 day 50 | 23.5 ng/mL
LC-MS/MS, item: S-adenosylmethionine | human cancer patients | 200 mg BID, 0 h, median, cycle 1 day 200 | 12.6 ng/mL
LC-MS/MS, item: methionine | human cancer patients | 200 mg BID, 4 h, median, cycle 1 day 200 | 91300 ng/mL
LC-MS/MS | human | oral, 200 mg twice daily, 6 h, mean | 9760 ng/mL
LC-MS/MS, item: S-adenosylmethionine | human cancer patients | 200 mg BID, 0 h, mean, cycle 1 day 200 | 10.9 ng/mL
item: S-adenosylmethionine | human | oral, 200 mg twice daily, cycle 1 day 15 | 13 ng/mL and 6.66 ng/mL and 11.8 ng/mL

Block 2 — read-out: enzyme activity; action: inhibitor; concentration: 0.5 µM; relative to: control
Target: Inhibitor of nuclear factor kappa-B kinase subunit beta (IKBKB, Homo sapiens, UniProt O14920)
Chain of UniProt O14920 (whole entry, looked up): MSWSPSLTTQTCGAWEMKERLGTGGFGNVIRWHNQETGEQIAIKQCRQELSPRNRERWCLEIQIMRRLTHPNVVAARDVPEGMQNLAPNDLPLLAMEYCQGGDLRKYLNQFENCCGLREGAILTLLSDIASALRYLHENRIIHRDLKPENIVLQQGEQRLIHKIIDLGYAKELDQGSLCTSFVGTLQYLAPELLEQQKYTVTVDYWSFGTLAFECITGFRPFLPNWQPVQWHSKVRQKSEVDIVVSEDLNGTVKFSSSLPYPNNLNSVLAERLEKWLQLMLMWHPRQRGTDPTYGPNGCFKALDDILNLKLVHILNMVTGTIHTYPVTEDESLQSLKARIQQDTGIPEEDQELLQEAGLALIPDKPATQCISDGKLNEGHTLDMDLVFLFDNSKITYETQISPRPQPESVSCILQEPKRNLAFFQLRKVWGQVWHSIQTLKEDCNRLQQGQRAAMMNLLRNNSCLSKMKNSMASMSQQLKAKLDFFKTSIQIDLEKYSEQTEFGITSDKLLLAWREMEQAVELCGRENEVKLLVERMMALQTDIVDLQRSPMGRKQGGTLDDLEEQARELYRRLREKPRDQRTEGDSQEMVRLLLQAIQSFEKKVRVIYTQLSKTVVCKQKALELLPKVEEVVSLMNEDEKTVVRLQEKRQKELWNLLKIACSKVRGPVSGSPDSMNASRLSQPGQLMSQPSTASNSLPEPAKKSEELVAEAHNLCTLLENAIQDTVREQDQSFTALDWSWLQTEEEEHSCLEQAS
Structure (SMILES) | remaining activity [%]
COc1ccc(OC)c2c(=S)c3ccccc3[nH]c12 | 103
Oc1ccc(-c2nc(-c3ccncc3)c(-c3ccc(F)cc3)[nH]2)cc1 | 110
CNC(=O)c1cc(Oc2ccc(NC(=O)Nc3ccc(Cl)c(C(F)(F)F)c3)cc2)ccn1 | 88.3
CCOC(=O)c1c(C)[nH]c(/C=C2\C(=O)Nc3ccccc32)c1C | 101
CC(C)[C@H](CO)Nc1nc(Nc2cc(N)cc(Cl)c2)c2ncn(C(C)C)c2n1 | 104
Cn1c2ccccc2c2c3c(c4c5ccccc5n(CCC#N)c4c21)CNC3=O | 90.4
OCC(O)CCON=C1C(c2c(O)[nH]c3ccccc23)=Nc2ccccc21 (stereo not shown) | 90.5
Nc1ccc2ncnc(NCCc3ccc(Oc4ccccc4)cc3)c2c1 | 100
Cc1ccc(Nc2nccc(N(C)c3ccc4c(C)n(C)nc4c3)n2)cc1S(N)(=O)=O | 86.9
COc1cc2ncnc(Nc3ccc(Oc4ccccc4)cc3)c2cc1OC | 106
COc1cc2nccc(Oc3ccc(NC(=S)NC(=O)c4ccccc4C)cc3)c2cc1OC | 99.4
Cn1sc(=O)n(Cc2ccccc2)c1=O | 112
Nc1[nH]nc2nc3ccccc3nc12 | 102
O=C1NC(=O)C(c2cn(CCCO)c3ncccc23)=C1c1cnccn1 | 87.3

Block 3 — read-out: cell-free assay; method: competition with immobilised ligand; concentration: 0.1 µM
SMILES: C[C@@H]1CN(c2cc(-c3n[nH]c4ccc(OC5(C)CC5)cc34)ncn2)C[C@H](C)O1
target | remaining binding
PLK4 (Homo sapiens, UniProt O00444) | 71%
STK39 (Homo sapiens, UniProt Q9UEW8) | 85%
MAPK9 (Homo sapiens, UniProt P45984) | 72%
CSF1R (Homo sapiens, UniProt P07333) | 91%
MAP3K6 (Homo sapiens, UniProt O95382) | 59%
CSNK1A1L (Homo sapiens, UniProt Q8N752) | 100%
PDPK1 (Homo sapiens, UniProt O15530) | 78%
CDK16 (Homo sapiens, UniProt Q00536) | 85%
KIT (Homo sapiens, UniProt P10721, A829P) | 62%
EGFR (Homo sapiens, UniProt P00533, G719C) | 63%

Block 4 — concentration: 1 µM
SMILES: COc1ccc2[nH]c3c4[nH]c5ccc(OC)cc5c4c4c(c3c2c1)C(=O)NC4=O
target | method | setting | relative to | remaining binding
CDK4 (Homo sapiens, UniProt P11802) | competitive binding panel | – | vehicle | 100%
NEK3 (Homo sapiens, UniProt P51956) | competitive binding panel | – | vehicle | 67%
CAMK2G (Homo sapiens, UniProt Q13555) | competitive binding panel | – | vehicle | 80%
SGK2 (Homo sapiens, UniProt Q9HBY8) | competitive binding panel | – | vehicle | 46%
TLK2 (Homo sapiens, UniProt Q86UE8) | competitive binding panel | – | vehicle | 95%
RPS6KB1 (Homo sapiens, UniProt P23443) | competitive binding | S6K1 | – | 21%
TNK1 (Homo sapiens, UniProt Q13470) | competitive binding panel | – | vehicle | 29%
VRK2 (Homo sapiens, UniProt Q86Y07) | competitive binding panel | – | vehicle | 98%
SLK (Homo sapiens, UniProt Q9H2G2) | competitive binding panel | – | vehicle | 96%
EIF2AK2 (Homo sapiens, UniProt P19525) | competitive binding | PRKR | – | 100%
CDC42BPA (Homo sapiens, UniProt Q5VT25) | competitive binding | MRCKA | – | 76%
PAK1 (Homo sapiens, UniProt Q13153) | competitive binding panel | – | vehicle | 70%

Repeated from above (block 3):
target | remaining binding
CSNK1A1L (Homo sapiens, UniProt Q8N752) | 100%
EGFR (Homo sapiens, UniProt P00533, G719C) | 63%
STK39 (Homo sapiens, UniProt Q9UEW8) | 85%
MAP3K6 (Homo sapiens, UniProt O95382) | 59%
PDPK1 (Homo sapiens, UniProt O15530) | 78%
